Measurements of several laboratories.
A part holds a random share of what one study measured.

Set 1 — method: protein binding microarray; molecule type: double-stranded DNA, one strand shown; matrix: in vitro; tested at: not given; baseline: not given; reading: higher = stronger binding
Target: Histone acetyltransferase KAT6A, both winged helices, GST fusion (KAT6A, Homo sapiens, UniProt Q92794, residues 1-181)
Setting: 8-mer, flanks averaged, mean of 2 arrays, mostly near background
Residues (chain): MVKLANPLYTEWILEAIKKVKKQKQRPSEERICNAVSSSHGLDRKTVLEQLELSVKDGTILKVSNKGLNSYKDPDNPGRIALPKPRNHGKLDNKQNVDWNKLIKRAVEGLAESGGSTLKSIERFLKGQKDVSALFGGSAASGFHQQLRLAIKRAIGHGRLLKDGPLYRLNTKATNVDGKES
Strand	E-score
AGAAAACC	-0.0665
AAGCTTAT	-0.00453
ATGCTCCC	-0.0648
CGAATGTC	-0.0319
AGGGAATG	-0.115
AACTATAG	-0.151
ACAGTGAG	-0.0864
TCTCGCCA	-0.116
AAAAGTGC	-0.0085
ATTCGCTC	-0.0171

Set 2 — method: aptamer microarray, sandwich; molecule type: DNA with 2'F-ANA; matrix: in vitro; tested at: 200 nM; together with: Cy3 exosite-II aptamer, 400 nM; reading: higher = stronger binding; strand: GGTTGGTGTGGTTGG
Target: Prothrombin, mature alpha-thrombin (F2, Homo sapiens, UniProt P00734)
Setting: whole 15-mer aptamer, many near background
Modification	mean fluorescence intensity
2'F-ANA at 5 6 8 10 12 15	48.2 a.u.
2'F-ANA at 1 3 6 8 9 11 12 15	406 a.u.
2'F-ANA at 4 7 8 10 13	75.4 a.u.
2'F-ANA at 3 4 6 7 8 9 11 12 14	298 a.u.
2'F-ANA at 1 3 4 6 9 10 11 12	73.2 a.u.
2'F-ANA at 3 5 11 13 14	56.4 a.u.
2'F-ANA at 3 6 12 13 15	1090 a.u.
2'F-ANA at 4 7 12 13 15	444 a.u.

Set 3 — method: universal PBM; molecule type: double-stranded DNA, one strand shown; matrix: in vitro; tested at: not given; reading: higher = stronger binding
Target: Sal-like protein 4, full length isoform B (SALL4, Homo sapiens, UniProt Q9UJQ4-2, residues 1-616)
Setting: 8-mer, flanks averaged, mean of replicates
Strand	E-score
AATACTGG	0.00125
CGGTCAAC	-0.239
AGACCAAA	0.0611
ACCCCAAT	-0.00578
CCTACGCG	-0.245
ATACCATA	0.309
TCAGCGCA	-0.138
GGTCTAAA	0.0478

Mixed results
Molecule	target	assay	system	setting	how to read	endpoint	value
PhoQ, residues 284 288 289 292 302 303 AMDMFI	PhoP, residues 12 14 15 18 19 NQAHL (Escherichia coli, UniProt P23836)	Sort-seq, item: YFP reporter	E. coli	PhoQ-PhoP variant library, together with: 10 µM Mg2+	baseline: high Mg2+ state, higher = stronger signaling	fold induction	1.48

For quick reference, copied from above (set 3):
Strand	E-score
AATACTGG	0.00125
CGGTCAAC	-0.239
AGACCAAA	0.0611
ACCCCAAT	-0.00578
